Published values gathered from unrelated publications.
Compare with care: the assays were run in different laboratories.

For `CSCOC1C(=O)C2(C)C(OCSC)CC3OCC3(OC(C)=O)C2C(OC(=O)c2ccccc2)C2(O)CC(OC(=O)C(O)C(C=C(C)C)NC(=O)OC(C)(C)C)C(C)=C1C2(C)C` (stereo not shown), the half-life was 450 min (female Sprague-Dawley rat, plasma; intravenous, 4 mg/kg).
The half-life of `O=C(O)/C=C/c1cccc(S(=O)(=O)Nc2ccccc2)c1` is reported as 177 min (human, moderate liver dysfunction, plasma; intravenous, 400 mg/m^2 belinostat, 30 min infusion, cycle 1 day -7).
The half-life of `Cn1c(=O)oc2ccc(-c3ccc(CC(C#N)NC(=O)C4CNCCCO4)c(F)c3)cc21` (stereo not shown) is reported as 990 min (human, plasma; 15 mg, single dose, fasted, mean).
The half-life of `CC(C)(O)c1ncc([S@](N)(=O)=NC(=O)Nc2c3c(cc4c2CCC4)CCC3)s1` is reported as 575 min (healthy human volunteers, plasma; oral, 100 mg once daily, day 14, spray-dried dispersion).
With `Cc1ccc(OCC(=O)N(Cc2cccs2)c2ccn[nH]2)cc1` the half-life was 181 min (male Sprague-Dawley rat, plasma; oral, 100 mg/kg, single dose).
With `CONC(=O)/C=C/c1cccc(S(=O)(=O)Nc2ccccc2)c1` the half-life was 79.6 min (human, normal liver function, plasma; intravenous, 400 mg/m^2 belinostat, 30 min infusion, cycle 1 day -7).
`CC(C)C[C@@H](NC(=O)[C@H](Cc1cccc2ccccc12)NC(=O)[C@H](CNC(=O)c1ccc2cc(F)ccc2c1)NC(=O)[C@H](CO)NC(=O)C1CCNCC1)C(=O)N[C@H](CO)C(=O)N1CCC[C@H]1C(=O)N[C@H](C(N)=O)[C@@H](C)O` has a half-life of > 1440 min (chemical stability; male human, serum; 1 mM, pH 7.4).
For `CCCCCCCCN(CCC(=O)Nc1ccccc1)C(=O)c1ccccn1`, the half-life was > 1440 min (chemical stability; human, culture medium; 500 µM).
With `O=C(O)c1cccc(S(=O)(=O)Nc2ccccc2)c1` the half-life was 223 min (human, moderate liver dysfunction, plasma; intravenous, 400 mg/m^2 belinostat, 30 min infusion, cycle 1 day -7).
With `O=C(CCc1ccc(CNC(C(=O)OC2CCCC2)C2CCCCC2)cn1)NO` (stereo not shown) the half-life was 25.7 min (human, plasma; oral, 40 mg, single dose, geometric mean).

Repeated from above:
With `Cc1ccc(OCC(=O)N(Cc2cccs2)c2ccn[nH]2)cc1` the half-life was 181 min (male Sprague-Dawley rat, plasma; oral, 100 mg/kg, single dose).
